Assay results pooled from the literature.
Protocols differ between the studies behind these lines. ± marks the error that the study gave.

CCCC[C@H](NC(=O)CNC(=O)CNC(=O)CN1CCN(CC(=O)O)CCN(CC(=O)O)CCN(CC(=O)O)CC1)C(=O)N[C@H]1CC(=O)NCCCC[C@@H](C(N)=O)NC(=O)[C@H](Cc2c[nH]c3ccccc23)NC(=O)[C@H](CCCNC(=N)N)NC(=O)[C@@H](Cc2ccccc2)NC(=O)[C@H](Cc2c[nH]cn2)NC1=O [gallium-67 labelled]  tissue uptake (female C57 mice, B16/F1 melanoma, muscle; intravenous, 0.037 MBq, 2 h): 0.34 ± 0.1 %ID/g
O=C([O-])c1cccc(CN(CCN(Cc2cn(Cc3ccccc3)nn2)Cc2cccc(C(=O)[O-])n2)Cc2cn(Cc3ccccc3)nn2)n1.[64Cu+2]  tissue uptake (healthy athymic nude mice, large intestine; intravenous, 15 min): 1.28 %ID/g
O=C(NCC1OC2CCC=CCCC2O1)c1ccc(COCCOCCOCC[18F])cc1 (stereo not drawn)  tissue uptake (female BALB/c nude mice, kidneys; intravenous, 15 min): 11.9 ± 0.7 %ID/g
O=C([O-])CN1CCN(CC(=O)[O-])CCN(CC(=O)NCCc2ccc3c(c2)C2C=CCC2C(c2cc4c(cc2Br)OCO4)N3)CCN(CC(=O)[O-])CC1.[111In+3] (stereo not drawn)  tissue uptake (mice with Hec50 tumour xenograft, liver; 2 h, added: G-1 5 µg blocking): 4.98 ± 0.71 %ID/g
CC(C)[C@H](NC(=O)[C@@H]1CCCN1C(=O)[C@H](CCCNC(=N)N)NC(=O)[C@H](CS)NC(=O)[C@H](Cc1c[nH]c2ccccc12)NC(=O)[C@H](CCCNC(=N)N)NC(=O)[C@@H](Cc1ccccc1)NC(=O)[C@H](Cc1c[nH]cn1)NC(=O)[C@H](CCC(=O)O)NC(=O)[C@H](CS)NC(=O)[C@H](CS)NC(=O)CNC(=O)[C@@H]1CC(=O)N[C@@H](CCCNC(=N)N)C(=O)NCC(=O)N[C@@H](CC(=O)O)C(=O)N[C@H](Cc2ccc(O)cc2)C(=O)N1)C(N)=O [technetium-99m labelled]  tissue uptake (C57 mice B16/F1 melanoma female, muscle; iv, 2 h, added: NDP-MSH 10 µg co-injected): 0.43 ± 0.29 %ID/g
CCCC[C@H](NC(=O)CN1CCC(NC(=O)CN2CCN(CC(=O)O)CCN(CC(=O)O)CCN(CC(=O)O)CC2)CC1)C(=O)N[C@H]1CC(=O)NCCCC[C@@H](C(N)=O)NC(=O)[C@H](Cc2c[nH]c3ccccc23)NC(=O)[C@H](CCCNC(=N)N)NC(=O)[C@@H](Cc2ccccc2)NC(=O)[C@H](Cc2c[nH]cn2)NC1=O [gallium-68 labelled]  tissue uptake (male C57BL/6J mice, B16-F10 tumours, thyroid; intravenous, 1 h, blocking study, added: 100 µg non-radioactive Ga-peptide): 1.3 ± 1.5 %ID/g
CCCC[C@H](NC(=O)CNC(=O)CNC(=O)CN1CCN(CC(=O)O)CCN(CC(=O)O)CC1)C(=O)N[C@H]1CC(=O)NCCCC[C@@H](C(N)=O)NC(=O)[C@H](Cc2c[nH]c3ccccc23)NC(=O)[C@H](CCCNC(=N)N)NC(=O)[C@@H](Cc2ccccc2)NC(=O)[C@H](Cc2c[nH]cn2)NC1=O [gallium-67 labelled]  tissue uptake (female C57 mice, B16/F1 melanoma, lung; intravenous, 0.037 MBq, 24 h): 0.35 ± 0.08 %ID/g
CN1C(=O)[C@@H](Cc2ccc(O)c(I)c2)NC(=O)CNC(=O)[C@H](Cc2ccc3ccccc3c2)NC(=O)[C@H](CCCNC(=N)N)NC(=O)[C@H]1CCCNC(=O)c1ccc(CNC(=O)CN2CCN(CC(=O)O)CCN(CC(=O)O)CCN(CC(=O)O)CC2)cc1 [lutetium-177 labelled]  tissue uptake (item: 177Lu radioactivity; female CB-17 SCID mice, Daudi xenograft, pancreas; intravenous, 0.16 nmol per mouse, 6 h): 0.09 ± 0.01 %ID/g
O=C([O-])CN1CCN(CC(=O)[O-])CCN(CC(=O)[O-])CCN(CC(=O)[O-])CC1.[64Cu+2]  tissue uptake (healthy athymic nude mice, heart; intravenous, 24 h): 0.52 %ID/g
CC(C)[C@H](NC(=O)[C@@H]1CCCN1C(=O)[C@H](CCCNC(=N)N)NC(=O)[C@H](CS)NC(=O)[C@H](Cc1c[nH]c2ccccc12)NC(=O)[C@H](CCCNC(=N)N)NC(=O)[C@@H](Cc1ccccc1)NC(=O)[C@H](Cc1c[nH]cn1)NC(=O)[C@H](CCC(=O)O)NC(=O)[C@H](CS)NC(=O)[C@H](CS)NC(=O)[C@@H]1CC(=O)N[C@@H](CCCNC(=N)N)C(=O)NCC(=O)N[C@@H](CC(=O)O)C(=O)N[C@H](Cc2ccc(O)cc2)C(=O)N1)C(N)=O [technetium-99m labelled]  tissue uptake (female mice, B16/F1 melanoma, intestines; intravenous, dose not given, 2 h, added: 10 µg NDP-MSH co-injected): 3.86 ± 0.84 %ID
NC12CNCCNCC(NCc3ccc(CNC(=O)CCCC(=O)NCc4ccc(-c5nncnn5)cc4)cc3)(CNCCNC1)CNCCNC2.[64Cu+2]  tissue uptake (athymic nude mice, SW1222 xenograft, spleen; 24 h post-injection, 24 h pretargeting interval, added: huA33-TCO pretargeting): 0.64 ± 0.04 %ID/g
CCCC[C@@H]1NC(=O)[C@@H](NC(=O)[C@H](CCC(=O)O)NC(=O)CNC(=O)CN2CCN(CC(=O)O)CCN(CC(=O)O)CCN(CC(=O)O)CC2)CCCCNC(=O)C[C@@H](C(N)=O)NC(=O)[C@H](C(C)C)NC(=O)[C@@H]2CCCN2C(=O)[C@H](CCCNC(=N)N)NC(=O)CNC(=O)[C@H](Cc2c[nH]c3ccccc23)NC(=O)[C@H](CCCNC(=N)N)NC(=O)[C@@H](Cc2ccccc2)NC(=O)[C@H](Cc2c[nH]cn2)NC(=O)[C@H](CCC(=O)O)NC1=O [gallium-67 labelled]  tissue uptake (C57 mice, B16/F1 flank melanoma, liver; intravenous, 2 h, added: blocking peptide 10 µg): 0.29 ± 0.04 %ID/g

For quick reference, copied from above:
CCCC[C@H](NC(=O)CNC(=O)CNC(=O)CN1CCN(CC(=O)O)CCN(CC(=O)O)CC1)C(=O)N[C@H]1CC(=O)NCCCC[C@@H](C(N)=O)NC(=O)[C@H](Cc2c[nH]c3ccccc23)NC(=O)[C@H](CCCNC(=N)N)NC(=O)[C@@H](Cc2ccccc2)NC(=O)[C@H](Cc2c[nH]cn2)NC1=O [gallium-67 labelled]  tissue uptake (female C57 mice, B16/F1 melanoma, lung; intravenous, 0.037 MBq, 24 h): 0.35 ± 0.08 %ID/g
